Experimental data collected from several papers.
Lines come from different studies, so protocols differ. “And” joins repeats or separate records; there may be more than shown. ± marks the error that the study gave.
CTSL: Procathepsin L (CTSL, Homo sapiens, UniProt P07711)
NMBR: Neuromedin-B receptor (NMBR, Homo sapiens, UniProt P28336)
KDR: Vascular endothelial growth factor receptor 2 (KDR, Homo sapiens, UniProt P35968)
PDGFRB: Platelet-derived growth factor receptor beta (PDGFRB, Homo sapiens, UniProt P09619)
ALDH1A1: Aldehyde dehydrogenase 1A1 (ALDH1A1, Homo sapiens, UniProt P00352)

| Compound | target | test | system | conditions | IC50 |
| --- | --- | --- | --- | --- | --- |
| COc1c(C[C@@H](C)O)c2c3c(C[C@@H](C)O)c(OC)c(=O)c4c(O)cc(OC(C)C)c(c5c(OC(C)C)cc(O)c(c1=O)c52)c43 | protein kinase C | enzyme activity, inhibitor | – | whole enzyme | 0.8 µM |
| COc1ccc(/N=N/c2ccc(O)c(C3c4c([nH]c(=S)[nH]c4=O)Nc4[nH]c(=S)[nH]c(=O)c43)c2)cc1OC | Prostaglandin G/H synthase 2 (PTGS2, Ovis aries, UniProt P79208) | enzyme activity, inhibitor, ELISA | – | – | 0.67 µM |
| Cc1ccccc1S[C@@H]1O[C@H](CO)[C@@H](O)[C@H](O)[C@H]1O | Sodium/glucose cotransporter 1 (SLC5A1, Homo sapiens, UniProt P13866) | transporter uptake, inhibitor, radiometric | – | – | 37 µM |
| CCCCCCCCCCCCCC(=S)NCCCC[C@H](NC(=O)[C@@H]1CCCN1C(=O)[C@@H](N)CC(C)C)C(=O)N[C@@H](CCCCN)C(=O)N[C@H](C(=O)O)[C@@H](C)O | NAD-dependent protein deacylase sirtuin-6 (SIRT6, Homo sapiens, UniProt Q8N6T7) | – | – | – | 8.1 µM |
| COc1cc2ncnc(Oc3ccc(Nc4nccc5[nH]cc(-c6ccccc6)c(=O)c45)cc3F)c2cc1OC | Hepatocyte growth factor receptor (MET, Homo sapiens, UniProt P08581) | HGF-induced autophosphorylation, inhibitor, ELISA | MKN-45 | – | 0.358 µM |
| CC(C)C[C@@H]1NC(=O)[C@H]([C@@H](C)O)NC(=O)[C@H](Cc2ccccc2)NC(=O)CNC(=O)[C@H](Cc2c[nH]c3ccccc23)NC(=O)[C@H](Cc2c[nH]cn2)NC(=O)[C@H](C)NC(=O)[C@@H](N)CCCCNC(=O)C[C@@H](C(N)=O)NC1=O | 72 kDa type IV collagenase (MMP2, Homo sapiens, UniProt P08253) | inhibitor | – | 1 h preincubation, 37 °C, with: APMA-activated enzyme | 7.56 µM |
| CC(C)c1ccc(CN2CCN(CC(=O)c3ccc4[nH]c(=O)[nH]c4c3)CC2)cc1 | DNA dC->dU-editing enzyme APOBEC-3A (Homo sapiens, UniProt P31941) | deaminase activity, inhibitor, alkaline cleavage | 293T lysate, untagged | – | 9 µM |
| CC(C)CCN(Cc1ccc(Cl)cc1)c1nc(C#N)nc(N2CCOCC2)n1 | CTSL | enzyme activity, inhibitor, fluorescence | – | – | 0.006 µM |
| CSCC[C@H](NC(=O)[C@H](Cc1ccccc1)NC(=O)[C@H](CO)NC(=O)CNC(=O)[C@@H](NC(=O)[C@H](C)NC(=O)[C@H](Cc1c[nH]c2ccccc12)NC(=O)[C@H](CC(C)C)NC(=O)[C@@H]1CCC(=O)N1)C(C)C)C(N)=O | NMBR | NMBR activity, cell-based | – | – | 0.001 to 0.003 µM |
| COCCCN1CCc2c(Cc3ccc(Cl)cc3)[nH]c3c(OC(F)F)ccc(c23)C1=O | cGMP-inhibited 3',5'-cyclic phosphodiesterase 3A (PDE3A, Homo sapiens, UniProt Q14432) | enzyme activity, inhibitor | – | – | > 10 µM |
| CC(C)CN(Cc1ccc(F)cc1)c1nc(C#N)nc(N2CCOCC2)n1 | CTSL | enzyme activity, inhibitor, fluorescence | – | – | 0.002 µM |
| Cn1c(=O)n(CCCO)c(=O)c2c1nc(Oc1cccc(OC(F)(F)F)c1)n2Cc1ccc(C2(C(F)(F)F)N=N2)cc1 | Short transient receptor potential channel 4 (TRPC4, Homo sapiens, UniProt Q9UBN4) | calcium signal, inhibitor, fluorescence | – | – | 0.016 µM |
| COc1cc2nccc(Oc3ccc(NC(=S)NCc4ccncc4)c(Cl)c3)c2cc1C(N)=O | KDR | – | – | – | 0.196 µM |
| CC(C)c1ccc(Cn2ccc([C@H](C)[C@](O)(Cn3cnnn3)c3ccc(F)cc3F)n2)cc1 | Cytochrome P450 2D6 (CYP2D6, Homo sapiens, UniProt P10635) | enzyme activity, inhibitor | human, liver microsomes | – | 6.24 µM |
| O=C(N1CCCC1)n1cc(-c2ccc(-c3ccccc3)cc2)nn1 | Platelet-activating factor acetylhydrolase 2, cytoplasmic (Mus musculus, UniProt Q8VDG7) | enzyme activity, inhibitor | – | – | 0.003 µM |
| O=C(O)CCC(=O)NNC(=O)c1nccc2ccccc12 | Egl nine homolog 1 (EGLN1, Homo sapiens, UniProt Q9GZT9) | inhibitor, AlphaScreen | – | bimodal curve, rough estimate, with: 2 µM 2-oxoglutarate | > 300 µM |
| CCCc1nn(-c2ccccc2)c(O)c1-c1nc2ccccc2[nH]c1=O | Tyrosine-protein kinase JAK3 (JAK3, Homo sapiens, UniProt P52333) | enzyme activity, inhibitor, ADP detection | – | – | 0.02 to 0.028 µM |
| COc1ccc([C@@H]2CC(=O)c3c(O)cc(O[C@@H]4O[C@H](CO[C@@H]5O[C@@H](C)[C@H](O)[C@@H](O)[C@H]5O)[C@@H](O)[C@H](O)[C@H]4O)cc3O2)cc1 | Solute carrier organic anion transporter family member 2B1 (SLCO2B1, Homo sapiens, UniProt O94956) | transporter uptake, inhibitor, flow cytometry | HEK293 | 10 min | 3.8 µM |
| COc1cc2nccc(Oc3ccc(NC(=S)NC4CC4)c(Cl)c3)c2cc1C(=O)NC1CC1 | KDR | – | – | – | 0.116 µM |
| Cn1c(=O)oc2cc(S(=O)(=O)N3CCN(C(=O)c4ccc5[nH]ccc5c4)CC3)ccc21 | Nucleotide triphosphate diphosphatase NUDT15 (NUDT15, Homo sapiens, UniProt Q9NV35) | enzyme activity, inhibitor, absorbance | – | – | > 100 µM |
| CCN(CC)CCOc1cc2nccc(Oc3ccc(NC(=S)NC4CC4)c(Cl)c3)c2cc1C(N)=O | PDGFRB | – | – | – | 0.389 µM |

| Compound | target | test | system | conditions | IC50 |
| --- | --- | --- | --- | --- | --- |
| Oc1c(C(Nc2nccs2)c2cccc(OCc3ccccc3)c2)ccc2cccnc12 (stereo not drawn) | Genome polyprotein, NS2B-NS3 protease (Dengue virus type 2, UniProt P14340) | enzyme activity, inhibitor | – | 0.1% CHAPS, with: Bz-Nle-Lys-Arg-Arg-AMC substrate | 2.93 ± 0.07 µM |
| O=C1O[C@H]([C@H](O)c2ccc(O)cc2)c2cccc(O)c21 | Alpha-glucosidase MAL12 (MAL12, Saccharomyces cerevisiae S288c, UniProt P53341) | enzyme activity, inhibitor, absorbance | – | – | 21.9 µM |
| CC(C)C[C@@H](CN[C@@H](Cc1ccc(Cl)cc1)C(N)=O)NC(=O)[C@H](Cc1c[nH]cn1)NC(=O)CNC(=O)[C@@H](NC(=O)[C@H](C)NC(=O)[C@H](Cc1c[nH]c2ccccc12)NC(=O)[C@H](CCC(N)=O)NC(=O)[C@H](N)Cc1ccccc1)C(C)C | NMBR | inositol phosphate generation, antagonist | Balb 3T3 expressing NMBR | with: neuromedin B 1 nM | > 10 µM |
| O=c1c2ccccc2sn1Cc1ccccc1 | Histone deacetylase 5 (HDAC5, Homo sapiens, UniProt Q9UQL6) | enzyme activity, inhibitor | – | – | 4.79 µM |
| COc1cc2nccc(Oc3ccc(NC(=S)NC4CC4)cc3C(F)(F)F)c2cc1C(N)=O | PDGFRB | – | – | – | 0.956 µM |
| CC[C@H](C)[C@@H]1NC(=O)[C@H](CCCNC(=N)N)NC(=O)[C@H](CCCNC(=N)N)NC(=O)[C@H](CC(C)C)NC(=O)[C@@H](NC(=O)[C@H](C)NC(=O)[C@H](C)NC(C)=O)CSCc2ccc3c(c2)CCc2cc(ccc2-3)CSC[C@@H](C(=O)N[C@H](C(=O)N[C@@H](CC(N)=O)C(=O)N[C@@H](CC(C)C)C(=O)N[C@@H](CCCNC(=N)N)C(=O)N[C@@H](CCC(N)=O)C(=O)N[C@@H](CCCCN)C(=O)N[C@@H](CC(C)C)C(=O)N[C@@H](CC(C)C)C(=O)N[C@@H](CC(N)=O)C(N)=O)C(C)C)NC(=O)[C@H](CC(=O)O)NC(=O)CNC1=O | Induced myeloid leukemia cell differentiation protein Mcl-1 (MCL1, Homo sapiens, UniProt Q07820) | ligand displacement, FP | – | – | 0.148 µM |
| CCOCCCOc1cc2nccc(Oc3ccc(NC(=S)NC4CC4)c(Cl)c3)c2cc1C(N)=O | PDGFRB | – | – | – | 0.0569 µM |
| N#CCCNC(c1ccccc1)(c1ccccc1)c1ccccc1Cl | Intermediate conductance calcium-activated potassium channel protein 4 (KCNN4, Homo sapiens, UniProt O15554) | ion current, inhibitor, patch clamp | – | – | 5 µM |
| COc1cc2nccc(Oc3ccc(NC(=S)NC4CC4)c(C(F)(F)F)c3)c2cc1C(N)=O | PDGFRB | – | – | – | 0.406 µM |
| N#Cc1nc(N2CCOCC2)nc(N(Cc2ccc(F)cc2)CC2CCCOC2)n1 (stereo not drawn) | CTSL | enzyme activity, inhibitor, fluorescence | – | – | 0.17 µM |
| CCOC(=O)c1cc2cc3cc(Br)ccc3nc2s1 | Tyrosine-protein phosphatase non-receptor type 11 (PTPN11, Homo sapiens, UniProt Q06124) | enzyme activity, inhibitor, fluorescence | – | – | 7.84 µM |
| O=C1C2=C(Nc3ccccc3SC2c2ccsc2)c2ccccc21 (racemic) | Cytochrome b (MT-CYB, Homo sapiens, UniProt P00156) | enzyme activity, inhibitor | – | – | > 5 µM |
| NC1CCC(Nc2nccc(-c3cccnc3Oc3ccc(NS(=O)(=O)Cc4ccccc4Cl)c4ccccc34)n2)CC1 (stereo not drawn) | Serine/threonine-protein kinase/endoribonuclease IRE1, RNase domain (ERN1, Homo sapiens, UniProt O75460) | RNase activity, inhibitor | – | with: XBP1 mini-substrate | 0.0094 ± 0.001 µM |
| C#Cc1cccc(Nc2ncnc3cc(OC)c(OCCCN4CCOCC4)cc23)c1 | Epidermal growth factor receptor (EGFR, Homo sapiens, UniProt P00533, T790M) | inhibitor | – | 30 min, room temperature, with: 80.8 µM ATP | 0.348 µM and 0.344 µM |
| CC=CC(CC(=O)O)c1ccc(OCc2ccc(-c3cc(OC)ccc3F)cc2)cc1 (stereo not drawn) | Free fatty acid receptor 1 (FFAR1, Homo sapiens, UniProt O14842) | binding, SPA | CHO-K1 membranes | with: [3H]AM-1638 | 0.00631 µM |
| COc1cc2nccc(Oc3ccc(NC(=S)N4CCC4)c(Cl)c3)c2cc1C(N)=O | PDGFRB | – | – | – | 0.0631 µM |
| O=C(NCCc1ccc(OS(=O)(=O)O)c(Br)c1)/C(Cc1cc(Br)c(O)c(Br)c1)=N/O | Ryanodine receptor 1, with FKBP12 (RYR1, Oryctolagus cuniculus, UniProt P11716) | binding, antagonist | rabbit skeletal muscle SR vesicles | 3.5 h, pH 7.4, 37 °C, with: [3H]ryanodine 1 nM | 29 µM |
| Cc1cccc(Cn2c(CN3CCN(C(=O)C4CC4)CC3)nc3c2c(=O)n(C)c(=O)n3C)c1 | ALDH1A1 | – | – | – | 0.033 ± 0.005 µM |
| C=CC(=O)NCc1ccc(C(=O)Nc2nc(-c3ccc4c(c3)CCC4)cs2)cc1 | GCLC/GCLM (Homo sapiens, UniProt P48506+P48507) | enzyme activity, inhibitor | – | 30 min preincubation, 37 °C | 8.9 µM |
| CC(C)CCCn1c(OC2CCN(C(=O)C3CC3)CC2)nc2c1c(=O)n(C)c(=O)n2C | ALDH1A1 | – | – | – | 0.081 ± 0.011 µM |
| COCC1CN(C2CCN(c3cc(OC)c(Nc4ncc(Br)c(Nc5ccc6c(c5P(C)(C)=O)OCCO6)n4)cc3C)CC2)C1 | Epidermal growth factor receptor (EGFR, Homo sapiens, UniProt P00533, del746-750/T790M) | kinase activity, TR-FRET | – | with: ATP at Km | < 0.0015 µM |
